Measurements from different studies.
Each line is one published result; not all experiments were run side by side. Numbers after ± are the reported error.
SLCO1B3: Solute carrier organic anion transporter family member 1B3 (SLCO1B3, Homo sapiens, UniProt Q9NPD5)
Sequence of UniProt Q9NPD5 (whole entry, looked up): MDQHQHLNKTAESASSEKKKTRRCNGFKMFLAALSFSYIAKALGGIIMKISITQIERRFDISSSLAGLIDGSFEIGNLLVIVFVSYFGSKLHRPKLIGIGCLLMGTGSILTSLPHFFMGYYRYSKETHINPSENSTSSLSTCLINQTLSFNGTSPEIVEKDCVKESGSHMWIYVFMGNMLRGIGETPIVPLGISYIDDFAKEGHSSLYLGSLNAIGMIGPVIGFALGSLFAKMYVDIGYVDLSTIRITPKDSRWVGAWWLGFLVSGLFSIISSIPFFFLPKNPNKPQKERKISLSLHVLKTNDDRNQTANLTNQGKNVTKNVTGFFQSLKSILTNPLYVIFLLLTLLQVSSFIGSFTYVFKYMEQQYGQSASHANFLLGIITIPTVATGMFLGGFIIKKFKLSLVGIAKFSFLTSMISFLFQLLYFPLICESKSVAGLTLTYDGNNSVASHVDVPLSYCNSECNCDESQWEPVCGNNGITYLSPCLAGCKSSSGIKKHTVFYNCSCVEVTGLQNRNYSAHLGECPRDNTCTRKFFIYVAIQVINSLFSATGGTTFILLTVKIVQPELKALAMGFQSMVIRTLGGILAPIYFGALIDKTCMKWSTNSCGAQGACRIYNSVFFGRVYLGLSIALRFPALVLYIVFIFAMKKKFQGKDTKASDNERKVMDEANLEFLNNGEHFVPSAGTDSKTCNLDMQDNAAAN
Sequence of UniProt Q8NER1 (whole entry, looked up): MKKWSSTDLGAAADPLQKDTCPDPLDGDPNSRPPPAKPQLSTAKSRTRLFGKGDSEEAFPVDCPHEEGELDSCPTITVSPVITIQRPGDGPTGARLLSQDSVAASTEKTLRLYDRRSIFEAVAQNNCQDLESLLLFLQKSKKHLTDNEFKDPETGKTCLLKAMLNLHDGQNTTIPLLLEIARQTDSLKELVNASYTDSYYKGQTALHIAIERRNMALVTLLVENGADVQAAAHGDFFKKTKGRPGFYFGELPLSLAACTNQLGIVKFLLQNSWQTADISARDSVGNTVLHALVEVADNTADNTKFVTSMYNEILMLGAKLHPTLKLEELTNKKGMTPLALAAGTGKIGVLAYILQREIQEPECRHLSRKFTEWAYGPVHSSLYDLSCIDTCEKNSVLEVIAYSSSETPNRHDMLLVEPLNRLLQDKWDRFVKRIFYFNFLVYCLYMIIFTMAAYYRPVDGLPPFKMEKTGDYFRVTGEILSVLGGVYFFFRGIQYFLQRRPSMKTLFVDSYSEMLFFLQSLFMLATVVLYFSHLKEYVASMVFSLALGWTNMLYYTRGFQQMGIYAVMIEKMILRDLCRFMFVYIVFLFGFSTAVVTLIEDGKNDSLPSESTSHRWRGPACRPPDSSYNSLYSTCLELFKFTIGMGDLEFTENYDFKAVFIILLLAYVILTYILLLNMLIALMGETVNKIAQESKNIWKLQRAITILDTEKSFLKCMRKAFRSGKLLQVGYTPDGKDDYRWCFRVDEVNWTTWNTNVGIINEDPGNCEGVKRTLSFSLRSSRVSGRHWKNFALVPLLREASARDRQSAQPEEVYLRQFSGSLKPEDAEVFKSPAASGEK
Sequence of UniProt O14791 (whole entry, unmodified, looked up): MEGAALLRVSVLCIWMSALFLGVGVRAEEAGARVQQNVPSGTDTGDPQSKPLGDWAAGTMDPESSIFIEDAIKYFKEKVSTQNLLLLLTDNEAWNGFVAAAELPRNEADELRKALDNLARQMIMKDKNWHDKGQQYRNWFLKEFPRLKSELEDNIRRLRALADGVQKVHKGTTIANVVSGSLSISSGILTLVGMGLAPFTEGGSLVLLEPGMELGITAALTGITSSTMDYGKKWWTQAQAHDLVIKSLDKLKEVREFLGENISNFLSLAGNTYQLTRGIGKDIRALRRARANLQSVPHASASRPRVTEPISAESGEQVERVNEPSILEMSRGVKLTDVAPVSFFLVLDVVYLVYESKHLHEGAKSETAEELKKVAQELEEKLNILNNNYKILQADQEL
Sequence of UniProt P03303 (whole entry, looked up): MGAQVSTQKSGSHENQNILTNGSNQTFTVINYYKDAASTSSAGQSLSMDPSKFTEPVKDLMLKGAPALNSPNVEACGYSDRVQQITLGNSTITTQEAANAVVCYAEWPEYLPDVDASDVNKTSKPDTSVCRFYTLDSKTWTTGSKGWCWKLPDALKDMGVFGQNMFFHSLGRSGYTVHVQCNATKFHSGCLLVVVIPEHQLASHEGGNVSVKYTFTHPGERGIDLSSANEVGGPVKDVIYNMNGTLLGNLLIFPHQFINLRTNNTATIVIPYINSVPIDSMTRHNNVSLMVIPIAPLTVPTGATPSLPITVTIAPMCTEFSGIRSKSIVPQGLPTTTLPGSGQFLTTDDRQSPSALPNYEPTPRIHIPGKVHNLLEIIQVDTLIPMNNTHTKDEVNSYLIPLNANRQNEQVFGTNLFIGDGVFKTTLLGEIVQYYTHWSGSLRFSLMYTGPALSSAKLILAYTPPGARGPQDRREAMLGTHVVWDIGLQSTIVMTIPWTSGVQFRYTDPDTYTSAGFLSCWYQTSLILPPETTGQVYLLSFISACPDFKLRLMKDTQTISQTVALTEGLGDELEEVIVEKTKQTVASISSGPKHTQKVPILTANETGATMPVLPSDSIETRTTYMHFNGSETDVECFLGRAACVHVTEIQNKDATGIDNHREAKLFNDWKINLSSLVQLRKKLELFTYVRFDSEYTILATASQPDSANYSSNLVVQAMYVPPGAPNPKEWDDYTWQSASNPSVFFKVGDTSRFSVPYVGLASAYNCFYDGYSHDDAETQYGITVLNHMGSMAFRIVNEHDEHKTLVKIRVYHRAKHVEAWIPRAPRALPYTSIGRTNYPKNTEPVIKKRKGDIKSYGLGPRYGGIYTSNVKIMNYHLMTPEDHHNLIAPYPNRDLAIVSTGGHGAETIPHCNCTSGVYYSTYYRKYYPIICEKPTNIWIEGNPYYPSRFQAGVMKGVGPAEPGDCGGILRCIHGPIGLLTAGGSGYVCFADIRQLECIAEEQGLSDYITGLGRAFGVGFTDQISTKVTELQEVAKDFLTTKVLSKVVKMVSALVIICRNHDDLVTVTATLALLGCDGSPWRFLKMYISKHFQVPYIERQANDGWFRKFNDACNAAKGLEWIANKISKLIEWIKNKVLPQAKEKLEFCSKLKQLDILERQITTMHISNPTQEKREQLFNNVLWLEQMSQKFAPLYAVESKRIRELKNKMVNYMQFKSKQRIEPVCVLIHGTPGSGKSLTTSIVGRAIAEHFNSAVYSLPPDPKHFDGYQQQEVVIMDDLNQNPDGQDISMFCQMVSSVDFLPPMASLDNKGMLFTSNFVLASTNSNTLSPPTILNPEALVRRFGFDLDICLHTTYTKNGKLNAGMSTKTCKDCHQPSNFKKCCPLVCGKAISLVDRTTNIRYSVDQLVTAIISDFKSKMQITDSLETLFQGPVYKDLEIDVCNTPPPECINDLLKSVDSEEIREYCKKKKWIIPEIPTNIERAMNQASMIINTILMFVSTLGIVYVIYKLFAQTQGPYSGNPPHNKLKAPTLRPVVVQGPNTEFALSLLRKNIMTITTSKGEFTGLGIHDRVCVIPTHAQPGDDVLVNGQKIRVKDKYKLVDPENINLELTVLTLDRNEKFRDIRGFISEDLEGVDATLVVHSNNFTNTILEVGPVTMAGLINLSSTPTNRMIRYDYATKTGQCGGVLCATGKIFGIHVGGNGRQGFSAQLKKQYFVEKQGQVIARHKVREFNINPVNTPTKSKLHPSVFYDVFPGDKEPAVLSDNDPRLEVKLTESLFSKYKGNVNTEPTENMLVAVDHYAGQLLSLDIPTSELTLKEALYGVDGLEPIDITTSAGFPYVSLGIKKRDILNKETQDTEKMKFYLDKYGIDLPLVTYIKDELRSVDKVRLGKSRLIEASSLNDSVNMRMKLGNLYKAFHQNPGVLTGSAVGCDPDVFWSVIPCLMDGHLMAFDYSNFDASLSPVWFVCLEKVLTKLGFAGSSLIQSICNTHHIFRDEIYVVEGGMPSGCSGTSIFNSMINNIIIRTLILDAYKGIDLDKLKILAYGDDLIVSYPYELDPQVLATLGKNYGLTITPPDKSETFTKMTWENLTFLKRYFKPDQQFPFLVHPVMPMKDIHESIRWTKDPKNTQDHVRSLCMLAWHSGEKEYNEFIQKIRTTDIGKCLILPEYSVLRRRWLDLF
Sequence of UniProt Q92769 (whole entry, looked up): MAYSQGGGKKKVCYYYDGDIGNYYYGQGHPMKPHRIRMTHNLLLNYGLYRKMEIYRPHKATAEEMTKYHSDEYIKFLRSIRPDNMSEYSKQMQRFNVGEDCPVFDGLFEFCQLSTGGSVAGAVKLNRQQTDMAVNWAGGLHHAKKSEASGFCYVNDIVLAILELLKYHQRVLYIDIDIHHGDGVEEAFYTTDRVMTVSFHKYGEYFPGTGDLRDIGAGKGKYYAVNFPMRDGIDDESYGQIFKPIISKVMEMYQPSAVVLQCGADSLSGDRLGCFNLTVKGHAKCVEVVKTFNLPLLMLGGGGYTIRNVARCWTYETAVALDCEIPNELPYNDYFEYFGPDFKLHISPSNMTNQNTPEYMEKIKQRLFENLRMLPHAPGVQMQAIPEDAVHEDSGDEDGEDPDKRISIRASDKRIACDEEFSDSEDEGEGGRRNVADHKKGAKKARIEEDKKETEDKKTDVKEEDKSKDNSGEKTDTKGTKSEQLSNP
Sequence of UniProt O43148 (whole entry, looked up): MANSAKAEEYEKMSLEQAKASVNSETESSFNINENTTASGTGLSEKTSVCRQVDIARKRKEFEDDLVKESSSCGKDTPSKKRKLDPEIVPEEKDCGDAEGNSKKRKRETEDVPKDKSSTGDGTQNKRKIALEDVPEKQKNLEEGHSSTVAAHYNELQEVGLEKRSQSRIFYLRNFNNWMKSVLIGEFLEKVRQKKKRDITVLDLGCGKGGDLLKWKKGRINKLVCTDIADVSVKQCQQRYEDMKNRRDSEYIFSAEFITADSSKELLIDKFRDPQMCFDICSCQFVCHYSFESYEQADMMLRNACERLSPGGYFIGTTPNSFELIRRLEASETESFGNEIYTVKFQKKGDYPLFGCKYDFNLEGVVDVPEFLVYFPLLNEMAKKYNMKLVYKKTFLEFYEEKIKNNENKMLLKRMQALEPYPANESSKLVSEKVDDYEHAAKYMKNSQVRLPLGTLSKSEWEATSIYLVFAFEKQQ

Structure (SMILES)	target	assay	test system	conditions	IC50 [nM]
CNC(=O)C1OC(n2cnc3c(NCc4cccc(I)c4)ncnc32)C(O)C1O (centres unmarked)	SLCO1B3	transport, inhibitor	–	10 (unit not given), pre-incubation, together with: cholecystokinin	12900 ± 5000
COCC(=O)NCCSc1c(-c2ccc(Br)cc2)[nH]c2ccccc12	Apolipoprotein L1 (Homo sapiens, UniProt O14791, I384M/M228I/R255K/S342G)	ion channel function, inhibitor, thallium flux	HEK293 tet-inducible Apolipoprotein L1	–	580
CCn1c(-c2ccc(OC)cc2)c(-c2ccc(OC)cc2)n(CC)c1=[Se+][Au-][P+](CC)(CC)CC.Cl	thioredoxin reductase (Acinetobacter baumannii, UniProt A0A0G4QN87)	thioredoxin reductase activity	carbapenem-resistant	2 h	1580
Cn1c(=O)c2cc(C(=O)NCCCN3CCCCCC3)sc2c2ccccc21	Bifunctional FPP/GGPP synthase (Plasmodium falciparum, UniProt Q8II79)	GGPP production, inhibitor	–	saturating substrate	9800
Cc1c(C(=O)CC2OC(=O)C(Cl)=C2Cl)sc2ccc(Cl)cc12 (centres unmarked)	Chymotrypsinogen A (Bos taurus, UniProt P00766)	enzyme activity, inhibitor	–	–	> 800000
O=C(OC1Cc2c(O)cc(O)cc2OC1c1cc(O)c(O)c(O)c1)c1cc(O)c(O)c(O)c1 (centres unmarked)	mRNA cap guanine-N(7) methyltransferase, with RAM (RNMT, Homo sapiens, UniProt O43148)	N7-methyltransferase activity, inhibitor, Py-FLINT	–	RNMT-RAM complex, together with: SAM 20 µM	2880 ± 920
CCOc1cc(/C=C2\Sc3ccccc3C2=O)cc(Br)c1OCC(=O)O	ACP3 (Homo sapiens, UniProt P15309)	enzyme activity, inhibitor	–	–	15400
O=C(CCCCCCC(=O)Nc1ccccc1N=Nc1ccccc1)NO	HDAC2 (Homo sapiens, UniProt Q92769)	enzyme activity, inhibitor	–	cis isomer, irradiated	185 ± 42
C=C(C)[C@]12C[C@@H](C)[C@@]34O[C@](Cc5ccccc5)(O[C@@H]1[C@@H]3C=C(COC(=O)Cc1cc(I)c(O)c(OC)c1)C[C@]1(O)C(=O)C(C)=C[C@@H]41)O2	TRPV1 (Homo sapiens, UniProt Q8NER1)	acid-evoked calcium influx, antagonist	HEK293, human	pH 5	114 ± 50.7
CC[C@H](C)[C@@H]1NC(=O)[C@H](Cc2ccccc2)NC(=O)[C@H](CC(=O)O)NC(=O)[C@@H](NC(C)=O)CSC(=O)[C@H](CCSC)NC1=O	agrC (Staphylococcus aureus, UniProt O07911)	–	–	–	> 1000
CC(C)[C@H](NC(=O)c1ccc(CNc2nc3c(c(=O)[nH]2)CCC3)cc1)C(=O)NC1COC1	MMP9 (Homo sapiens, UniProt P14780)	enzyme activity, inhibitor	–	–	> 5000
Cn1cc(C(=O)Nc2ccccn2)c2ccccc21	Genome polyprotein, 3C protease (rhinovirus B14, UniProt P03303)	3C protease activity, SAMDI-MS	human rhinovirus	–	2320
CC(=O)CCC1C(=O)NC(C(C)C)C(=O)NC(Cc2cccc(O)c2)C(=O)N2CCCC(N2)C(=O)OC(C(C)=CC=CC(=O)N2CCCCO2)CC=CC=CC(O)C(C)C1O (centres unmarked)	SLCO1B3	transporter uptake, inhibitor	CHO	pH 7.3	5400
CCCC[C@H](NC(C)=O)C(=O)N1CCC[C@H]1C(=O)N[C@@H](CO)C(=O)N[C@@H](CO)C(=O)N[C@@H](C)C(=O)N[C@]1(C)CCCCCCC=CCCC[C@@](C)(C(=O)N[C@@H](CC(C)C)C(=O)N[C@@H](CCCCN)C(=O)N[C@@H](CCC(=O)O)C(=O)N[C@H](C(=O)N[C@@H](CCC(N)=O)C(N)=O)[C@@H](C)CC)NC(=O)[C@H](CCCCN)NC(=O)[C@H](CCCNC(=N)N)NC(=O)[C@H](CC(C)C)NC(=O)[C@H](CC(C)C)NC(=O)[C@H](CCC(N)=O)NC(=O)[C@H](CCCNC(=N)N)NC1=O	UBA1 (Homo sapiens, UniProt P22314)	enzyme activity, inhibitor	–	–	96200
